Assay results pooled from the literature.
Every numbered part comes from another study and shows a few of its results, in no order.

Set 1 — method: protein binding microarray; form: double-stranded DNA, one strand shown; sample: in vitro; concentration: not given; relative to: not given; reading: higher = stronger binding
Target: Histone acetyltransferase KAT6A, both winged helices, GST fusion (KAT6A, Homo sapiens, UniProt Q92794, residues 1-181)
Notes: 8-mer, flanks averaged, mean of 2 arrays, mostly near background
Target sequence (chain): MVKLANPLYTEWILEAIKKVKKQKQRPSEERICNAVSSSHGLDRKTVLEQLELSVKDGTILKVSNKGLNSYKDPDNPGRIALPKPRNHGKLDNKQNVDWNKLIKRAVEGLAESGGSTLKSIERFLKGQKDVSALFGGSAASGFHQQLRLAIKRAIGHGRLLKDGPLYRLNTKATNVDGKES
For `TCTTAACA`, the E-score was -0.0705.
For `CAGTTCCG`, the E-score was 0.193.
With `CGAAATCC` the E-score was -0.0246.
`AATGGTGA` gave an E-score of -0.0992.
The E-score of `CGGGACGC` is reported as 0.289.
With `CTCGCGAC` the E-score was 0.258.

Set 2 — method: protein-binding microarray; form: double-stranded DNA, one strand shown; sample: in vitro; concentration: 250 nM; notes: 60-bp whole probe; with: salmon DNA 0.4 mg/ml; relative to: random background probes; reading: higher = stronger binding; constant ends, left off below: GCCTAGCAC … GTCTTGATTCGCTTGACGCTGCTG
Target: Interferon regulatory factor 5, full length, phosphomimetic (IRF5, Homo sapiens, UniProt Q13568-2, residues 1-514, K96S/S451D/S453D/S456D/S462D)
`TTAGGTTCCCTTTTCCTTTAGTGCTAG` gave a log fluorescence of 0.203 z-score.
`TCTGTTTTTGCTTTCCTTCTGTGCTAG` has a log fluorescence of 2.06 z-score.
`CAAATTGTCTCTGTCCCTGTGTGCTAG` has a log fluorescence of 0.254 z-score.
`TCACCTCTAACTTTCCAACTGTGCTAG` has a log fluorescence of 0.504 z-score.
`TGAGGACTGGACTATCGGTTAGTGCTA` gave a log fluorescence of 5.71 z-score.
For `TGTGCTTTCCTCGTGATGCTGTGCTAG`, the log fluorescence was 0.0853 z-score.
With `GACGATATCACTATCGAGACGTGCTAG` the log fluorescence was 4.63 z-score.

Set 3 — method: EMSA with sequencing; form: double-stranded DNA, one strand shown; sample: in vitro; concentration: 10 and 20 nM; relative to: negative control set to 0; reading: higher = stronger binding
Target: Hepatocyte nuclear factor 3-alpha (Foxa1, Mus musculus, UniProt P35582, residues 1-468, full length assumed)
Notes: whole designed probe, mean of two concentrations, ends assumed
Constant ends, left off below: GTGAGCGGTGCCCATTGATGGGGAAC … TTTCACTGGGATCGTGGGGAC
Residues (chain): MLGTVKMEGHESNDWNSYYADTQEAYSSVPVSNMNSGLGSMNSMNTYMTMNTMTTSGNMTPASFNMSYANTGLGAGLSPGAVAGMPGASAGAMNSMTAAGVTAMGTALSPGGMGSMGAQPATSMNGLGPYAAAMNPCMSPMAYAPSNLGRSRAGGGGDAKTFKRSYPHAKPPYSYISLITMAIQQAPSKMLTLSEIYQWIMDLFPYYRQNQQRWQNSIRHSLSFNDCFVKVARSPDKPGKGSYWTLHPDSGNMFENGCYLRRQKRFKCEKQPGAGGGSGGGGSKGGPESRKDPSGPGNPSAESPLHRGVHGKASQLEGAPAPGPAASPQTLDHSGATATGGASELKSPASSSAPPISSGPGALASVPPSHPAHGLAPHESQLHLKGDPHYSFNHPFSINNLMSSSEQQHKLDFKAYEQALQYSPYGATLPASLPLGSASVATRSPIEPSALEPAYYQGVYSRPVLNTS
`CAGCCCACTGCCCATCCTGGCACCAGCTCAGGGACCTCCCAGAAGGCAGAGCCCTTAGGGCCCTTAGGGCCAGGACAGCACAACCTATCTGAGTAAACAGAGATCCCAGCTCTCAAGCCCTCAGGAATGGGCCTGGTGTGTTCCAGGGTCCAAAGGGTGAGGGGAAGTGGGGAGAAGGGTTCTGAGCAAACAG`: “normalised bound fraction” 0.412 ratio.
For `GCCGGTATTTACCCACAATCTCTGTTTTGGAAGTAATTAATCTTCGAATGTAGGAGCCCCTTTGTGGTGGAAAGCGCACGCTGACACTTTTGTGTAAACACCCAGCTTAGCATATTGACAAACTGGTGGCTGTTACTTTGATCCCGGGCTGCCGGCTCTGAAAAGGCAAGCCAGCTCCGGGCTGCCCCACCGG`, “normalised bound fraction” read 0.303 ratio.
Under “normalised bound fraction”, `GGACACAGCCAGAGGCCATGAGTGCTCAGGAGTGCCATAAACTGTGATTTTGAGACTGATAAGGCCAGGCTAAATAGCTTGCTGGGTGTGTCTTGTTTGCCTTTTTATATTTGAGGCCTATAAAAAAATAGTGAGAAAATAGCAAGATGCCCAGGAGACAGGTGATCTGATTCAGCCAGGGGGTGGGAGGTGG` is recorded as 0.085 ratio.
For `GTCATTTATTTCATGTTGTCCTGAGATTGGATCTAAACTTTGAGCTCCTAATCATCGCTCAGATTGTGTGGCCTCGTAAGATTGTGCGTAATAAGTAAACAAGCATCTGTACACTTGTTAACTTAATGAGCTTCTGTATGTGACACTTTAAGCCTTTTTAAAAATTAAGTGCTGGGCTATGCTTGGTGTCTCA`, “normalised bound fraction” read 0.417 ratio.
`TGCTCTTGATTCAAATGCATGCTGAGCTTTCCCTGATCAGCTTGTTCCTTTGGGCGATATCACAATTTCATCTTGTTCAAGCTGTCTACATTCCTGTTTACTTAGGTTTGCAAATAGAACTTTAGCACTCAAATTAGTACTGACAGAACAACCTGCAAGTATTCTAAATCCTCATTTGCCTTCATTCCAAGGG`: “normalised bound fraction” 0.364 ratio.

Further values, each from its own experiment
For `PhoQ, residues 284 288 289 292 302 303 SLKLQV`, the fold induction was 9.8 (PhoP, residues 12 14 15 18 19 STWGI (Escherichia coli, UniProt P23836); Sort-seq, item: YFP reporter; E. coli; PhoQ-PhoP variant library, with: 10 µM Mg2+; relative to: high Mg2+ state, higher = stronger signaling).
